Results from different studies.
Protocols differ between the studies behind these lines.
B1: UGT1A9 (Homo sapiens, UniProt O60656); chain GKLLVVPMDGSHWFTMRSVVEKLILRGHEVVVVMPEVSWQLGRSLNCTVKTYSTSYTLEDLDREFKAFAHAQWKAQVRSIYSLLMGSYNDIFDLFFSNCRSLFKDKKLVEYLKESSFDAVFLDPFDNCGLIVAKYFSLPSVVFARGILCHYLEEGAQCPAPLSYVPRILLGFSDAMTFKERVRNHIMHLEEHLLCHRFFKNALEIASEILQTPVTEYDLYSHTSIWLLRTDFVLDYPKPVMPNMIFIGGINCHQGKPLPMEFEAYINASGEHGIVVFSLGSMVSEIPEKKAMAIADALGKIPQTVLWRYTGTRPSNLANNTILVKWLPQNDLLGHPMTRAFITHAGSHGVYESICNGVPMVMMPLFGDQMDNAKRMETKGAGVTLNVLEMTSEDLENALKAVINDKSYKENIMRLSSLHKDRPVEPLDLAVFWVEFVMRHKGAPHLRPAAHDLTWYQYHSLDVIGFLLAVVLTVAFITFKCCAYGYRKCLGKKGRVKKAHKSKTH
Chain of UniProt Q9M274 (whole entry, looked up): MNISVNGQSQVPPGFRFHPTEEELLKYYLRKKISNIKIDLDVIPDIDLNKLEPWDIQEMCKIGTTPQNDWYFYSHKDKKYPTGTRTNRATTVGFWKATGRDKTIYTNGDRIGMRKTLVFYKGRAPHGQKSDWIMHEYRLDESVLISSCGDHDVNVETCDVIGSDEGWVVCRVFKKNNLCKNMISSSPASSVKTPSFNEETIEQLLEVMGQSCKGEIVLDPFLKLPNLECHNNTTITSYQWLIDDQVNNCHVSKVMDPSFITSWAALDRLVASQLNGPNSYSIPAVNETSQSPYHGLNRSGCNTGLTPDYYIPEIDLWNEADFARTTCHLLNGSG
Chain of UniProt Q9N4I4 (whole entry, unmodified, looked up): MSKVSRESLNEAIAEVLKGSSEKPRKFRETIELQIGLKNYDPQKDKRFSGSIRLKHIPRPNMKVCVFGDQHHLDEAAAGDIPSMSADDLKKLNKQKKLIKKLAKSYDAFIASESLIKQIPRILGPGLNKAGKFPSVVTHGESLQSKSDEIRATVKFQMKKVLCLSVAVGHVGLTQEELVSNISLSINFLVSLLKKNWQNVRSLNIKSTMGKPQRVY

CGAGTAAGCGCGGTATTTCGGCGCATGCTTTTTCTCCTTTGAATGGTGAACGCTCAGAACGAACGCCCAGTGATGCTTGGCGCTTCCTTTCCTTATGCGCCACGTGGTACAGCTGTGTATCACGCAATTGTCACCTTAACACTTTATACCGCGTTGGTCAACCGGTGTATCATCGCCTCGTACGGCCCAGTACAGCAACACCAGCATTACAGCAATGTCGTTCAAC (dsDNA) — binding (galR full length assumed (Bifidobacterium breve, UniProt F9Y1U7); EMSA; double-stranded DNA, one strand shown): binds
GTGTCATAAGAAAGCTTCAAGAGACAGCAACAAGATTTGGTGGAAGAAGGAGACAGCTCAGTGTAGTTAGTGTTTTTATATAATTTAATTGCTTGAGCTTCCAACTTCTACTGTTTGTTATTCTTTTGAGTTCTTTAGAATTTGTATAACTTAGAGTAGCTTTCAAGTTATTATGTATTTCTACTTTAGTCTTACTTAATATTTTGTATCTTATAAACTTTACCAAATCTGG (dsDNA (Arabidopsis thaliana)) — binding (NAC066 full length assumed (Arabidopsis thaliana, UniProt Q9M274); EMSA; double-stranded DNA, one strand shown; added: NST2): binds
DNA 1 GGACGGCATTGGATCGAGGTTGAGTTGGTTGGACGGCTGCGAGGA / DNA 2 TCCTCGCAGCCGTCCAACCAACTCA (dsDNA; 5' overhang 20 nt) — binding (POLG/POLG2 26-1239; 26-485 (Homo sapiens); SAXS; double-stranded DNA): binds
GGGAGAGUAGCUACGACCUGUGAAAACAGGGAGUUGGGACUUUCAAAGCCUAACGGACCCCCACCCAGGGUCUUAAAUUUUUGGGGAGGCAAUUAUUGCCGCUUUGAAAUAAUGAUAUGAGCUGGUAUAAUGUAACCAAUCGUGUCAUUUGGAUUUAUUUCUAUUGUUCUAUUUUCCAG (ssRNA (Caenorhabditis elegans); 39 nt, deletion) — binding (rpl-10a 1-216 (Caenorhabditis elegans, UniProt Q9N4I4); UV crosslinking): binds
TTGAAATGCATGCATTATTGTCTTTAAACAATTCAACACATCTTAATATATGTATAGGTTAATTGTATTAAACCAATGAATATATTTTTGCAGTGAATGTGATTATTGAATTAATTACGCCGTATTTTTTCTTTGTTTTTACCGATAACGGAAGTGTGCCGACGTA (dsDNA (Escherichia coli); blunt) — binding (leuO fragment S120D (Escherichia coli); DNase I footprinting; double-stranded DNA, one strand shown): binds
B1 (UGT1A9) — Vmax/Km (CCOc1ccc(O)cc1; steady-state kinetics; pH 7.4, 37 °C): 8.3 µL/min/mg
TTATTGGGCAGACTGTTGCCGACGTTGTTAAATCCGGGCAGATCCGCCCCGCAGGTGGGACAGGTCCGGCTCTTGGTACTCAATTCTTCTCTGCTGTTCATGGGAATATCCCCTATCTGATGGATGCTAGTGATTCTCTTTTACATCAGCTAGGACCATACCGCATTGAGAATTGTTAATTTGTCTATAGAAATTTTTACCTTTGCTTTCCTCCAATGGAGTCCTGCCTCTCAGTGATCAA (dsDNA) — binding (fur full length assumed (Acidithiobacillus ferrooxidans, UniProt B7J425); EMSA; double-stranded DNA, one strand shown; supershift, competed by cold probe, added: Mn2+ 0.1 mM): binds
GATCGATCGACACACACACACACACAGATCGATCGA (dsDNA; N6-methyl-dA at 12,14,16,18,20,22,24,26; blunt) — binding (Pc fragment (Drosophila melanogaster); fluorescence polarization; double-stranded DNA, one strand shown): binds
DNA 1 CGAGGTATGGCACTGGCCGTCGTTTTCG / DNA 2 CGAAAACGACGGCCAGTGCCATAC (dsDNA; 4-nt 5' overhang, recessed primer) — binding (POLG/POLG2 26-1239; 26-485 del43-52 (Homo sapiens); cryo-EM; double-stranded DNA; added: dCTP): binds

For quick reference, copied from above:
DNA 1 CGAGGTATGGCACTGGCCGTCGTTTTCG / DNA 2 CGAAAACGACGGCCAGTGCCATAC (dsDNA; 4-nt 5' overhang, recessed primer) — binding (POLG/POLG2 26-1239; 26-485 del43-52 (Homo sapiens); cryo-EM; double-stranded DNA; added: dCTP): binds
